Published values of several laboratories.
Each numbered part is a random draw from the data of one study; scales do not carry over between parts.

Set 1 — technique: RNA Bind-n-Seq; molecule type: RNA; medium: in vitro; concentration: 1 µM; notes: whole 134-nt RNA, ends assumed; added: 150 mM KCl; relative to: input library; direction: higher = stronger binding; measurement: log2 enrichment
Target: Ras GTPase-activating protein-binding protein 1, C-terminal RGG region (G3BP1, Homo sapiens, UniProt Q13283)
Sequence of UniProt Q13283 (whole entry, looked up): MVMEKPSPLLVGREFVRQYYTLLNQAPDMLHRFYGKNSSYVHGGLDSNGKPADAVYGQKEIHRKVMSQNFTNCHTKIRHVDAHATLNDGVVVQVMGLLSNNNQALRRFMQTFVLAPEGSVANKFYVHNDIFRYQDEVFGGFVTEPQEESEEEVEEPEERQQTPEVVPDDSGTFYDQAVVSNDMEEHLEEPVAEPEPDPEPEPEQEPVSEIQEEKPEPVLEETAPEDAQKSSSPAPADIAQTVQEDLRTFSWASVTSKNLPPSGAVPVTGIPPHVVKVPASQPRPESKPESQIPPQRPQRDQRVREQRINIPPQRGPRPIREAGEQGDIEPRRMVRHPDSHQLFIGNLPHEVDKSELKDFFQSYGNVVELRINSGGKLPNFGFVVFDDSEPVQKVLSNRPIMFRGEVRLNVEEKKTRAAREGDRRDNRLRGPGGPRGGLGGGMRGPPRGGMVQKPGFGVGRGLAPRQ
All sequences stand within: GGGAGUUCUACAGUCCGACGAUC … UGGAAUUCUCGGGUGUCAAGG
AGUCCUGUGCUACACAUCGUAUGUACCGAAUCGGAAAAAGGGAAAAAGGAAAAAGGGAAAGUAUUAUGUUACGCCGUUCGGAUCUGCACU: -1.91
AUUUGUACACAGACAGGGAAACUGGCAAGCUGAAGGGAGAGGCAACGGUCUCUUUUGAUGACCCACCUUCAGCUAAAGCAGCUAUUGACU: -0.59
GCAGGAAGUAAAAACAAAUGGAAAUGCUUCGGAUAGUGGCAGGGGUGAGGGUUGCUAAGGAAAGGGUGGGAUGGGAGUGGGUAAAGAGUU: 0.361
AAGUCCUGUGCUACACAUCGUAUGUACCGAAUCGGUUUUUUUGGAGGUUUUUUUGGAAAGUAUUAUGUUACGCCGUUCGGAUCUGCACUU: -1.99
GCAGGAAGUAAAAACAAAUGGAAAUGCUUCGGAUAGUGGCAGGGGUGGGGGUUGCUAAGGAAAGGGUGGGAUGGGAGUGGGUAAAGAGUG: 1.62
GUCCUGUGCUACACAUCGUAUGUACCGAAUCGGGGAAAAGGGGAAAAGGGGAAAAGGGAAAGUAUUAUGUUACGCCGUUCGGAUCUGCAC: 0.563
AAGUCCUGUGCUACACAUCGUAUGUACCGAAUCGGCCCCGGGGCCCCGGGGCCCCGGAAAGUAUUAUGUUACGCCGUUCGGAUCUGCACU: -3.35

Set 2 — technique: competition protein-binding microarray; molecule type: double-stranded DNA, one strand shown; medium: in vitro; concentration: 2 µM; added: Pho4 competitor, 0.05 µM; direction: higher = stronger binding; measurement: fluorescence intensity; all sequences stand within: … GTCTTGATTCGCTTGACGCTGCTG
Target: Centromere-binding protein 1, full length, His-tagged (CBF1, Saccharomyces cerevisiae, UniProt P17106, residues 1-351)
Sequence of UniProt P17106 (whole entry, looked up): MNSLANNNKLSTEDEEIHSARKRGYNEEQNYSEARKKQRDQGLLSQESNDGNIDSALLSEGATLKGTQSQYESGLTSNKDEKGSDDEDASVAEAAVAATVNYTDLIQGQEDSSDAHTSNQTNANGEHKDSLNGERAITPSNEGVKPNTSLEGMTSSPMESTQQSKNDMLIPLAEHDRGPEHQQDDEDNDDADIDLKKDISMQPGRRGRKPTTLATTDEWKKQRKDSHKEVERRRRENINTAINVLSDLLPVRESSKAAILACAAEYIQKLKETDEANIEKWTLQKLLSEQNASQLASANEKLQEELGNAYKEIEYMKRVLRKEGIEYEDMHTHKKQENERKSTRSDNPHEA
Notes: whole 60-bp probe, lowest competitor level
CGGGGTTAAGTTTGCCAGGTGGGTGGCTTGCAGCAG: 64.3 a.u.
CTAACGAAGGTTTGTCACTTAACTTACAAGCCAAGT: 76 a.u.
CAATTCGGCAAGAGGTGTTCTGCGCATCTGAATTAT: 79.6 a.u.
CGTCCTAGCGATTGATTTGTGGGTGCCATGAGGAAG: 77.5 a.u.
ATTTGCATATTCGACTTCGTGCAAACAGAAATGCGG: 76.6 a.u.
GTTGGCAGTCTCATCGCCGTGGGTAATCTTGAGTGG: 74.4 a.u.
AAATTACTAAGTTGGGTGGTGGGTGACGCCGTATGA: 67.5 a.u.
TGAAAAGATGAATCGCACGTGAACCATATTATAATC: 1590 a.u.

Set 3 — technique: protein binding microarray; molecule type: double-stranded DNA, one strand shown; medium: in vitro; concentration: not given; relative to: not given; direction: higher = stronger binding; measurement: E-score
Target: Histone acetyltransferase KAT6A, both winged helices, GST fusion (KAT6A, Homo sapiens, UniProt Q92794, residues 1-181)
Notes: 8-mer, flanks averaged, mean of 2 arrays, mostly near background
Residues (chain): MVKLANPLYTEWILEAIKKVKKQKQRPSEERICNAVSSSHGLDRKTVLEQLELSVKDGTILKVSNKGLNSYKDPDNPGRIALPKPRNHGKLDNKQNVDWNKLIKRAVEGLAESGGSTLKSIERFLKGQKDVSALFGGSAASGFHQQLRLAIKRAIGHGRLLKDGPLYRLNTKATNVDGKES
GTTTCCTA: -0.199
CCAGCTGA: -0.141
CTTCGCAC: 0.0316
CAATCACG: 0.179
GACGGGAC: 0.24
TAGGGGAA: -0.275
AGAAGCAA: -0.174
GCAGGGAA: -0.113

Other studies, line by line
PhoQ, residues 284 288 289 292 302 303 TGYLSA
fold induction (PhoP, residues 12 14 15 18 19 LQHIR (Escherichia coli, UniProt P23836); Sort-seq, item: YFP reporter; E. coli; PhoQ-PhoP variant library, added: 10 µM Mg2+; relative to: high Mg2+ state, higher = stronger signaling): 15.3

Excerpt of the above (set 3):
GTTTCCTA: -0.199
CCAGCTGA: -0.141
CTTCGCAC: 0.0316
